Results pooled from the literature.
Each numbered part is a random draw from the data of one study; scales do not carry over between parts.

Block 1
Target: RNA binding protein fox-1 homolog 2, RRM domain, GST-SBP tag (RBFOX2, Homo sapiens, UniProt O43251-10, residues 100-194)
Technique: RNA Bind-n-Seq
Form: RNA
Medium: in vitro
Tested at: 365 nM
Setting: natural RNA segment, single round, ends assumed
Reference: no-protein control
Reading: higher = stronger binding
Measurement: RBNS enrichment (R)
Constant ends, left off below: GGGAGUUCUACAGUCCGACGAUC … UGGAAUUCUCGGGUGCCAA
Construct (chain): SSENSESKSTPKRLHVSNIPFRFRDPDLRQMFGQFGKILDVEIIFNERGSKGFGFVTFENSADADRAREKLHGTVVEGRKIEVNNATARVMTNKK
UUUGCAAUGAUCUGUGCCUUCUUUCUACCACCCUCUUGAUUGGAGCUUUUGUGAUGCAGCUACCAUGAUUCCAAAUAAGUAAAAAUCAGCCACUUCUCCCUGUCCACUAG: 8
AUAUAACACUUAUGUGCUGGGCUUUCUUUUAAAUGCUUUCCAAGUGUUAACUUGUUUAGUCCCCUUUACUCUGAGAUAGGUACUGUUACCCCAGUUUUACAAAUGGCUAA: 0.26
AGUUGUGGUAGAGCAAAGACCCACAGGGGUUGGACCCAGACCUCUUAAAACCUGGCUGGACCCCCAUGAGUCCACGCAGAGUCAAUAACUCACCUGUCAUGCUGUUCCCA: 0.382
UGGACUUGUAUAGUGAGAGAGGAGGCCUGGACCGAGAUGUGAGUCCUGUUGAAGACUUCCUCUCUACCCCCCACCUUGGUCCCUCUCAGAUACCCAGUGGAAUUCCAACU: 0.216
AAAAAAAAGUGAACUAAUAUAGCAUCAGGUAAGCAUUGUCACAGAGCCAAGCCUGGUAGGAUUUGUCUUUAAAAGUAGCAAUAGUAAGAGAGGCAAGUCAAGGGAAAGAG: 0.506
UUUAUUUAAUGUAAAUAGUUUUUGUUUCCAAUGAGGCAGUUUCUGGUACUCCUAUGCAAUAUUACUCAGCUUUUUUUAUUGUAAAAAGAAAAAUCAACUCACUGUUCAGU: 1.3
CCCAAAUGGCUGGGCAAGGGUGACCUUGAUUCACACACCACAGCCUCCCCUUGAGUGAUGGAAGGUGCCACUCACCUAGGCCAAAGCCCACAUCCUCUUGGGGACUCAGA: 0.436
UGUUUGAGGUGGAGCUGGUGUCCCGGGAGGAUGGGCUGCCCACAGGCUACCUGUUUGUGUGGCACAAGGACCCUCCUGCCAACCUGUUUGAAGACAUGGACCUCAACAAG: 0.272
CAUGAUGUGAACCUUGGUUUUGAACUCUGUUCCUGCCCCUCCCCGACCGCCCCAGCCUGUGCCCGCCCCGUGCCUGCCGUGGCUGGUGGGUGGCGGUGGUGGGGCCGGGU: 0.328
UUCCUCUUUAAAAAACUGAGAAAAUGCAAAAACUGGAACUUUUUGCAAUAUUAUAAAAGAAGUAAUCUUAUUUUAGCUCAUUCUGUGACAUGUGCGACUCUUAAGAAAGC: 0.6
CUUGGUGACAUCAUUCCAAACCUGGGGUAGCUGCCGCCCCCUGUGUCAGCCACAUACCCCCUCUCGCAGUGUUCUGAGGAAAGGAGCCUUCGGCAUAGACUCGUGUAUUU: 0.289
GAAAGUGCUAGAGUACAUGGUCCGUGUGUGGCCUAGCUCAUUCCAUGUCAGCAUUUGGUGUUACUCCUGUCCAAAUUCUGUUUGCAGACUUGUUUCAUGAUGAUGCUCUG: 0.367

Block 2
Target: RING finger protein unkempt homolog, zinc fingers 1-6, SBP tag (UNK, Homo sapiens, UniProt Q9C0B0, residues 30-357)
Sequence of UniProt Q9C0B0 (30-357, looked up): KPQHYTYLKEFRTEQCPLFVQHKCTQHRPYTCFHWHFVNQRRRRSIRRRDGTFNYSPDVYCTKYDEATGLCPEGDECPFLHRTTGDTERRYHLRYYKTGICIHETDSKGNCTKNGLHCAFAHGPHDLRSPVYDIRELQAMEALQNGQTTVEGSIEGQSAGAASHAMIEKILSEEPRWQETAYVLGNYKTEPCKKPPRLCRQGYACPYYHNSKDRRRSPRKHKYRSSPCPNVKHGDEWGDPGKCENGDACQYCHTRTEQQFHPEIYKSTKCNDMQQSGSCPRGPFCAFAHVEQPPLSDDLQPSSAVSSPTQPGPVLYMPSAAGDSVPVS
Technique: RNA Bind-n-Seq
Form: RNA
Medium: in vitro
Tested at: 100 nM
Setting: RNA with constant flanks, vertebrate orthologous sites, ends assumed
Reference: input RNA pool
Reading: higher = stronger binding
Measurement: bound/input enrichment
Constant ends, left off below: GGGAGUUCUACAGUCCGACGAUC … CAACAGAGGAUUGAGCAUCA
AAAUUUAUUUCAUGCCUUGGACGCCCUAUCGUACUGAUACUUUAAUAGAAUAUGCUUCUUUAGAAGAUUUCCAAAAUAGUCGCCAAACAACGACAUAUAAACUUCCAAAUCGAGUAGAUG: 1.26 ratio
AAAUCAUGGUCGCUUUUUACCGCCUCAAUGAGGUAGUCUCUCUUGAUGUUUGGUUGUGACAAGAGCCCAUCGUACCAAAUAAGUCUUUCCACAUUUCAUUUCUUUCACACUCUUAGUCAC: 0.855 ratio
GUUGUGAUCCUUUUAACAUACACAGAAAGCUAUCAAAGAAAAAAUUACGAGCAAUUGACUUAGAUGAUGCAGCUUUUCUAAGUGCGAAGUUUGGAAGACAGUUUGUACCUGGUUGGAAGC: 0.684 ratio
UCAGGGACGCUUUGACCUUAAACUCUAUGUCAAGUCAUGACCUCAGCUAUGAAAAUAGCAUUUACUCUGCCCAUUUUAAAAUGUAAUAAUUUAGAGAAAAAAUAUUAAAGUUAAAAAAAA: 0.462 ratio
UUUUUAGUACUUAAGCCAACAGCAGUUCUAAAAUACUAUUUAUUUGUGUAAGUUUGUACAUAGUAAUACCAACCUCAUAUUGUUGCAGAAUUUAUUUUUUCCUGAAUUUGAGUUUUGAGA: 0.664 ratio
GUGUUUUGGUACAAAGCUGUGUACCAAUACUCAUCUUCUUUACAUUAUACCAACUAACCUUAGAAAUAGGAAUUUAAUAUUUUUCAGAAUUUUACAUUGCUGUAUAUUCAAAAUUUUAAA: 0.657 ratio
CUGAAGCUUUGUGUUUGGCUGCACAUGCAUAAGCUGCUACAAAUAGAAUAAAGAAUUUCAUAGCCUGUAUCUAUCAUUUAGAUGCAUGGAAAAAUGGGCUUUGCACUCUGGGUUUGGAGC: 3.37 ratio
CUGUUUUGUGAAACAUGUCUACCCAGAAAAGUAGCAUUCUAUAAAUACUAUUAAACAACUUAGCUAUAUUAUUUUUAAGUAUUAAAUUAUAUGUCAAGCAGUUAAAGUGAAUUUCAGAGU: 0.89 ratio
UGUCCGUAAGUACUGUCCCUGGCCGGGGCCAAAGGCCAGGUGUCUCACCAAGGACAUGCAUUUAAAACAUUUUUUAAAUCAUUGUACAAGAAGAGAUGUGUCUGAACGGCAUCUCAAAGU: 0.231 ratio
CUCACUUCUAGGUUGGACCUAGUGGAAAAGUCAUAGGAAUUGACCAUAUUAAAGAACUAGUAGAUGACUCAAUAAAUAAUGUCAGAAAGGAUGAUCCAAUGCUUUUGUCUUCAGGGAGAG: 1.05 ratio
AGCAGUUAGGGUGGGCCGUGCCUCUGCAUUUCCCAUGAGGAGAAAAGCCCAAAUCGAUGACACACAUUUCACACAUCUGAUGAUGAUCUUUUUGUUUUCUGCUUUUACGUAUGCAUCAAA: 0.347 ratio

Block 3
Target: Histone acetyltransferase KAT6A, winged helix 2, GST fusion (KAT6A, Homo sapiens, UniProt Q92794, residues 85-181)
Technique: protein binding microarray
Form: double-stranded DNA, one strand shown
Medium: in vitro
Tested at: not given
Setting: 8-mer, flanks averaged, mean of 2 arrays, mostly near background
Reference: not given
Reading: higher = stronger binding
Measurement: E-score
Construct (chain): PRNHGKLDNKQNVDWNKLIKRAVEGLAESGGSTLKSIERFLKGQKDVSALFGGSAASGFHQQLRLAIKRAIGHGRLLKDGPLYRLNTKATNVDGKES
CTCGTCAA: -0.0591
AACAAGAA: 0.041
ACTCACTA: 0.0194
GCCAAAGC: -0.0995
TAAATTTA: 0.152
AAAGAGGC: -0.064
ACCGTCAA: 0.0104
GCATCACC: -0.000165
CAAGGACA: -0.00309
TAAGTAGA: -0.0378
CACCGGCA: 0.124
GAGCTCGC: 0.256
AGCCTATG: -0.174
GCGGCGCC: 0.321
ACAGCATC: -0.0473
AATGCTAG: -0.221
AAGAGCTA: 0.136
CCAGACAC: -0.0312
CCCAGCTA: -0.0427
CCCTATCG: -0.0912
GGGGTCGA: -0.0469
AACTAGAC: 0.000115
CTCGTGAC: -0.0407
ACCGTAGC: -0.222
CGGGTAAC: 0.0658

Block 4
Target: Interferon regulatory factor 5, full length, phosphomimetic (IRF5, Homo sapiens, UniProt Q13568-2, residues 1-514, S451D/S453D/S456D/S462D)
Technique: protein-binding microarray
Form: double-stranded DNA, one strand shown
Medium: in vitro
Tested at: 940 nM top
Setting: 60-bp whole probe
With: salmon DNA 0.4 mg/ml
Reference: random background probes
Reading: higher = stronger binding
Measurement: fitted relative affinity
Constant ends, left off below: GCCTAGCAC … GTCTTGATTCGCTTGACGCTGCTG
GCAAACCCCATTCTCAGCCCGTGCTAG: 0.814 z-score
GACGGTTTCGGGTTCCGGGACGTGCTA: 9.94 z-score
TACGGTTTCGACACTGGGGACGTGCTA: 6.55 z-score
TTAGGACTGGGTCTCGGCTAGTGCTAG: -0.0144 z-score
TTAGATTTCGGGTATCGATTAGTGCTA: 3.8 z-score
TCATCTTTCCAACTCTGACTGTGCTAG: 0.951 z-score
TCAGATTTTGTCCTCCCACTGTGCTAG: 0.242 z-score
TTAGACTTCAGTTTCGATTAGTGCTAG: 8.47 z-score
TCAAACTTGTGTTTGTCACTGTGCTAG: 0.0441 z-score
CCGCATATCGGGGTGCGCCCGGTGCTA: -0.212 z-score
TTAGGTATCGGGTATCGGTTGGTGCTA: 7.14 z-score
TTTGGTATCGGACTGGGTTAGTGCTAG: 6.75 z-score
GACTGTTTCGGGTATCGGGACGTGCTA: 4.74 z-score
GACGATTTCAGACTGCAGACGTGCTAG: -0.355 z-score
TTAGAACTGGGGACTGGGTTAGTGCTA: -0.364 z-score
TCAGTGTTCTTTTCTGTTACTGTGCTA: 0.951 z-score

Repeated from above (block 1):
CUUGGUGACAUCAUUCCAAACCUGGGGUAGCUGCCGCCCCCUGUGUCAGCCACAUACCCCCUCUCGCAGUGUUCUGAGGAAAGGAGCCUUCGGCAUAGACUCGUGUAUUU: 0.289
UUUAUUUAAUGUAAAUAGUUUUUGUUUCCAAUGAGGCAGUUUCUGGUACUCCUAUGCAAUAUUACUCAGCUUUUUUUAUUGUAAAAAGAAAAAUCAACUCACUGUUCAGU: 1.3
AUAUAACACUUAUGUGCUGGGCUUUCUUUUAAAUGCUUUCCAAGUGUUAACUUGUUUAGUCCCCUUUACUCUGAGAUAGGUACUGUUACCCCAGUUUUACAAAUGGCUAA: 0.26
UUUGCAAUGAUCUGUGCCUUCUUUCUACCACCCUCUUGAUUGGAGCUUUUGUGAUGCAGCUACCAUGAUUCCAAAUAAGUAAAAAUCAGCCACUUCUCCCUGUCCACUAG: 8
AAAAAAAAGUGAACUAAUAUAGCAUCAGGUAAGCAUUGUCACAGAGCCAAGCCUGGUAGGAUUUGUCUUUAAAAGUAGCAAUAGUAAGAGAGGCAAGUCAAGGGAAAGAG: 0.506
AGUUGUGGUAGAGCAAAGACCCACAGGGGUUGGACCCAGACCUCUUAAAACCUGGCUGGACCCCCAUGAGUCCACGCAGAGUCAAUAACUCACCUGUCAUGCUGUUCCCA: 0.382
UGUUUGAGGUGGAGCUGGUGUCCCGGGAGGAUGGGCUGCCCACAGGCUACCUGUUUGUGUGGCACAAGGACCCUCCUGCCAACCUGUUUGAAGACAUGGACCUCAACAAG: 0.272
UUCCUCUUUAAAAAACUGAGAAAAUGCAAAAACUGGAACUUUUUGCAAUAUUAUAAAAGAAGUAAUCUUAUUUUAGCUCAUUCUGUGACAUGUGCGACUCUUAAGAAAGC: 0.6
